Measured values gathered from unrelated publications.
Lines come from different studies, so protocols differ. Values joined by “and” are separate records of one study, mostly repeats; a detail may differ. ± marks the error that the study gave. ≈ marks a conversion by molar mass, not a printed value.

CC1=C/C(=N\N=C(/S)Nc2cccnc2)CC(C)(C)C1 — AC50 (Mus musculus; gene silencing, high-content imaging; LDR reporter GFP cells; retest run 1): 2000 nM
C[n+]1ccc(/C=N/NC(=O)c2cccc(C(=O)N/N=C/c3cc[n+](C)cc3)c2)cc1 — ΔTm (MYC parallel G4 DNA; FRET melting; 1 µM, DNA 0.2 µM): 1.1 ± 0.5 °C
O=S(=O)(c1ccc(-c2ccc3ncnc(Nc4ccc(OCc5cccc(F)c5)cc4)c3c2)cc1)N1CCOCC1 — EC50 (Leishmania major; parasite growth, resazurin; promastigote): 480 nM
CN(C(=O)c1ccn2ncc(-c3ccc(C(N)=O)cc3)c2c1)c1ccc(C#N)cn1 — median fecal consistency score (Cryptosporidium parvum; neonatal calf; treatment period, scale 1 to 3; direction not given): 2
CN(C)c1cccc(-c2ccc3ncnc(Nc4ccc(OCc5cccc(F)c5)c(Cl)c4)c3c2)c1 — EC50 (Leishmania major; parasite growth, resazurin; promastigote): > 15000 nM
Cc1ccc(C(=O)c2sc(S)c(-c3nc4ccccc4s3)c2N)cc1 — viral titre reduction (human adenovirus type 7; plaque reduction; non-toxic concentration): 10%
O=C(N/N=C/c1ccccn1)c1cc(-c2ccc(Cl)cc2)nc2ccccc12 — Emax (Mus musculus; gene silencing, high-content imaging; LDR reporter GFP cells; 30 h, confirmation, mean of two runs): 61%
Cc1c(CN(C)C(=O)/C=C/c2cnc3c(c2)CC(N)C(=O)N3)oc2ccccc12 (stereo not drawn) — MIC (Klebsiella pneumoniae; microbial growth, broth dilution; BAA2342): 16 µg/mL (≈ 41 µM)
Nc1ncc(-c2cc(-c3cnn(CC(F)(F)F)c3)ncc2F)nc1C(=O)NC1CNCC(F)C1 (stereo not drawn) — remaining binding (AMPK-alpha1; KINOMEscan competition binding; 1 µM; relative to: DMSO control): 39%
COc1cccc(/C=N/Nc2nc(Nc3ccccc3)nc(-n3nc(C)cc3C)n2)c1O — Emax (Mus musculus; gene silencing, high-content imaging; LDR reporter GFP cells; 30 h, retest run 2): 99%
C=C(NC(=O)c1csc(-c2nc3c(cc2O)-c2nc(cs2)C(=O)NC(C(C)O)C(=O)NC(=C(C)OC)c2nc(cs2)C(=O)NC2c4nc(cs4)C(=O)NC(COC(=O)c4c5c6c(cccc6n4O)COC(=O)C(OC4CC(C)(O)C(N(C)C)C(C)O4)C2OC5)c2nc-3cs2)n1)C(N)=O (stereo not drawn) — MIC50 (Staphylococcus aureus; MRSA, 10 isolates; pH 5.5): 0.0156 µg/mL (≈ 0.0109 µM)
CC1(C)C(NC(=O)C(=NOC2(C(=O)O)CC2)c2csc(N)n2)C(=O)N1OS(=O)(=O)O (stereo not drawn) — MIC (Proteus vulgaris; agar dilution; ATCC 29905, susceptible): ≤ 0.03 µg/mL
CC(C)n1ncc2c(C(=O)NC[C@@H](C)N)cc(C3CC3)nc21 — plaque reduction (Enterovirus D68; viral replication; RD, US/MO/14-18947; 100 nM): 0%
Cc1ncsc1-c1ccc(C(C)NC(=O)C2CC(O)CN2C(=O)C(NC(=O)CCCCCCCCCCN2CCCC(Nc3ncc(Cl)c(Nc4ccccc4S(=O)(=O)C(C)C)n3)C2)C(C)(C)C)cc1 (stereo not drawn) — log2 fold change (22Rv1; RNA-seq, item: NNMT mRNA; concentration not given; relative to: DMSO): -3.83
CC(=O)OC[C@H]1O[C@@H](Sc2sc(C(=O)c3ccc(Br)cc3)c(N)c2-c2nc3ccccc3s2)[C@H](OC(C)=O)[C@@H](OC(C)=O)[C@@H]1OC(C)=O — viral titre reduction (human adenovirus type 7; plaque reduction; non-toxic concentration): 30%
CC1(C)[C@H](NC(=O)/C(=N\OC2(C(=O)O)CC2)c2nsc(N)n2)C(=O)N1OS(=O)(=O)O — MIC (Proteus vulgaris; agar dilution; ATCC 29905, susceptible): ≤ 0.03 µg/mL
Cc1cccc2c1N(C(=O)n1ccnn1)CC2 — germination rate (Arabidopsis thaliana; kai2 mutant; 100 µM, 72 h): 49.6%
CC(C)(C)NCC(SS(=O)(=O)O)c1ccccc1 (stereo not drawn) — male worms recovered (Schistosoma mansoni; mice; 600 mg/kg single dose, dosed day 1, perfused 44): 16 worms per mouse and 15 worms per mouse and 59 worms per mouse and 23 worms per mouse
COc1cc(Nc2ncnc3ccc(-c4ccc(S(=O)(=O)N5CCOCC5)cc4)cc23)ccc1OCc1cccc(F)c1 — EC50 (Leishmania major; parasite growth, resazurin; promastigote): 1600 nM
CC(C)n1ncc2c(C(=O)NCC3CNC3)cc(C3CC3)nc21 — plaque reduction (Enterovirus D68; viral replication; RD, US/MO/14-18947; 10 nM): 0% and 0.83%
CC1(C)[C@H](NC(=O)/C(=N\OCC(=O)N2CCC[C@@H]2C(=O)O)c2nsc(N)n2)C(=O)N1OS(=O)(=O)O — MIC (Shigella flexneri; agar dilution; ATCC 12022, susceptible): 2 µg/mL (≈ 3.73 µM)
O=C(CSc1cccc[n+]1[O-])c1ccccc1Br — Emax (Mus musculus; gene silencing, high-content imaging; LDR reporter GFP cells; 30 h, confirmation, mean of two runs): 127%
CN1CCN(S(=O)(=O)c2ccc(-c3ccc4ncnc(Nc5ccc(OCc6ccccc6)cc5)c4c3)cc2)CC1 — EC50 (Leishmania major; parasite growth, resazurin; promastigote): 1500 nM
C#CCNC(=O)C1(O/N=C(\C(=O)N[C@@H]2C(=O)N(OS(=O)(=O)O)C2(C)C)c2csc(N)n2)CC1 — MIC (Proteus vulgaris; agar dilution; ATCC 29905 susceptible): ≤ 0.06 µg/mL
CCN(CC)CCCNC(=O)CSc1c2c(nc3cc(Cl)ccc13)CCCC2 — Emax (Mus musculus; gene silencing, high-content imaging; LDR reporter GFP cells; 30 h, retest run 2): 86%
C[n+]1cccc2cc(/C=N/NC(=O)c3cc(C(=O)N/N=C/c4ccc5c(ccc[n+]5C)c4)ncn3)ccc21 — ΔTm (hp2 hairpin duplex DNA; FRET melting; 1 µM, with: ds26 10 µM): 0.4 ± 0.3 °C
CC1C=CC=CC(C)C2C=CC3CC(C)(O)C(Cl)C(C)C3C2C(=O)C(Cl)(Cl)C(=O)C(C)C(=O)O1 (stereo not drawn) — MIC (Staphylococcus aureus; MRSA clinical isolate; resistant: OXA,CIP,CLI,DAP,ERY,LVX,MXF,TOB): 0.025 µg/mL (≈ 0.047 µM)
CN1CCN(S(=O)(=O)c2ccc(-c3ccc4ncnc(Nc5ccc(OCc6ccccc6)c(Cl)c5)c4c3)cc2)CC1 — EC50 (Leishmania major; parasite growth, resazurin; promastigote): 3400 nM
O=C(O)CN1C(=O)[C@H](Cc2ccccc2)NC2(C1=O)C1CC3CC(C1)CC2C3 (stereo partly drawn) — IC90 (Trypanosoma brucei; parasite growth; pH 7.4, blood stage): 203000 nM
O=C(c1ccc(-c2ccc3ncnc(Nc4ccc(OCc5cccc(F)c5)c(Cl)c4)c3c2)cc1)N1CCOCC1 — EC50 (Leishmania major; parasite growth, resazurin; promastigote): 850 nM
Cc1cnc(CNC(=O)c2c(=O)c3ccc(N4CCCN(C)CC4)nc3n3c2sc2ccccc23)cn1 — downregulated genes (Trypanosoma brucei; RNA-seq; Lister 427 bloodstream form; 2 x EC50, 4 h, log2 FC ±1, FDR 0.05; relative to: untreated): 314 genes
C=CC(=O)Nc1cccc(Cn2ncc3cnc(Nc4cnn(CCOC)c4)nc32)c1 — percent of control (ASK1 human; binding, KINOMEscan; 100 nM; lower = stronger binding): 100%
CCc1nnc(NC(=O)c2cccc(C(=O)Nc3nnc(CC)s3)n2)s1 — Emax (Mus musculus; gene silencing, high-content imaging; LDR reporter GFP cells; 30 h, retest run 2): 26%
CC(C)(C)OCc1ccc(-c2ccc3ncnc(Nc4ccc(OCc5cccc(F)c5)c(Cl)c4)c3c2)cc1 — EC50 (Leishmania major; parasite growth, resazurin; promastigote): > 15000 nM
COc1ccc(S(=O)(=O)N(C)c2cc(OC)c(OC)cc2NC(C)=O)cc1 — selectivity index (Leishmania infantum; intracellular amastigote growth; U-937 macrophages and HeLa; relative to: IC50 HeLa over IC50 amastigotes): 1.3
C#CCO/N=C(\C(=O)N[C@@H]1C(=O)N(OS(=O)(=O)O)C1(C)C)c1nsc(N)n1 — MIC (Shigella flexneri; agar dilution; ATCC 12022, susceptible): 8 µg/mL (≈ 19.1 µM)
COc1ccc(NC(=O)CSc2nc3c(oc4ccccc43)c(=O)n2Cc2ccco2)cc1Cl — Emax (Mus musculus; gene silencing, high-content imaging; LDR reporter GFP cells; 30 h, retest run 2): 73%
CNCc1ccc2c(c1)N(C(=O)OCc1c(F)c(F)c(F)c(F)c1F)[C@H](CNC(=N)N)[C@H]2NC(=O)C(=O)Nc1ccc(Cl)c(F)c1 — IC80 (HIV-1; viral infection; TZM-bl, CRF02_AG 235-47 Env pseudovirus): 2520 nM
O=[N+]([O-])C(=C\Nc1ccccc1O)/C=N/c1ccccc1O — EC50 (Mus musculus; gene silencing, high-content imaging; LDR reporter GFP cells; retest, mean of two runs): 12600 nM
O=C(c1cncc(-c2ccc3ncnc(Nc4ccc(OCc5cccc(F)c5)c(Cl)c4)c3c2)c1)N1CCOCC1 — EC50 (Leishmania major; parasite growth, resazurin; promastigote): > 15000 nM
CC(C)n1ncc2c(C(=O)NCC(C)(C)N)cc(C3CC3)nc21 — plaque reduction (Enterovirus D68; viral replication; RD, US/MO/14-18947; 30 nM): 17.6% and 23.3%
CN(C)CCNC(=O)c1cccn2c(=O)c3cc4ccccc4cc3nc12 — downregulated G4-containing genes (Trypanosoma brucei; RNA-seq; Lister 427 bloodstream form; 2 × EC50, 4 h, ChIP-seq G4 peak overlap): 8 genes
